Experimental data collected from several papers.
Parts stem from different laboratories: compare values within a part only.

Study 1
Target: Interferon regulatory factor 7, full length, phosphomimetic (IRF7, Homo sapiens, UniProt Q92985, residues 1-503, S471D/S472D/S475D/S476D/S477D/S483D/S484D/S487D)
Method: protein-binding microarray
Molecule type: double-stranded DNA, one strand shown
Medium: in vitro
Tested at: 2200 nM top
Notes: 60-bp whole probe
With: salmon DNA 0.4 mg/ml
Reference: random background probes
Reading: higher = stronger binding
Quantity: fitted relative affinity
Shared flanks, not repeated: GCCTAGCAC … GTCTTGATTCGCTTGACGCTGCTG
Target sequence (chain): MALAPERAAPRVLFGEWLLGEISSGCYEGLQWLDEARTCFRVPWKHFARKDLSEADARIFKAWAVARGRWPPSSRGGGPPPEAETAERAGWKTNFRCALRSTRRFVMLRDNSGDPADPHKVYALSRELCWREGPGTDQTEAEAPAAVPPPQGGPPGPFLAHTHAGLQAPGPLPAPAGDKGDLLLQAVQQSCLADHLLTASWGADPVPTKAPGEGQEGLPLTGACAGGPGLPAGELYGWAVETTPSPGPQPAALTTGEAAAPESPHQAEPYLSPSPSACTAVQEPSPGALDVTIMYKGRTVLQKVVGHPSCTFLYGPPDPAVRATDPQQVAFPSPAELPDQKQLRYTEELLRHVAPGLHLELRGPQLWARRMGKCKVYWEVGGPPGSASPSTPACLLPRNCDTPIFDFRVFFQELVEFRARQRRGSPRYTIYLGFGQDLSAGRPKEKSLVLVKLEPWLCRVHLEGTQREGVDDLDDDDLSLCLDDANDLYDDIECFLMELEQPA
GACGGTTCCGGTTGCGGGACGTGCTAG: 0.907 z-score
GACGGTAGCCTACTGCTGACGTGCTAG: -0.583 z-score
CTAGGACTGCTTCTCCTTTAGTGCTAG: 0.703 z-score
GCTGGGTTTTCTTGGCACAGGTGCTAG: 0.0358 z-score
TCAGGTTTCCTTCTCCTTTAGTGCTAG: 3.05 z-score
TTAGGACTGGACGATCGGTTAGTGCTA: -0.437 z-score
CTGGCTGGGGTGGTGGCAGTGTGCTAG: -1.41 z-score
CTGCAGGTAGCAGAGACTTGGTGCTAG: -0.67 z-score
GACGGACTGGACACCGGGGACGTGCTA: -1.04 z-score
GACGGTTTCCTTTTCCTGAGGTGCTAG: 4.96 z-score
GAAGGACTGGGGACTGGGGACGTGCTA: -0.795 z-score
TCATTTTTTTTTTTACTACTGTGCTAG: 2.07 z-score
ATATATGTATATATGTGTATGTGCTAG: 1.07 z-score
TTAGATCTCAGTCTCAATTAGTGCTAG: -0.0648 z-score
CTAGGTCTCCTACTGCTTTAGTGCTAG: 0.596 z-score
GACGGTATGGACACTGGGGACGTGCTA: -0.567 z-score
GTCAGCGGTGGTGTTCGGTGGTGCTAG: -0.753 z-score
TCATTCATGAAATTTTAAACTGTGCTA: -0.145 z-score

Study 2
Target: Sal-like protein 4, full length isoform A (SALL4, Homo sapiens, UniProt Q9UJQ4, residues 1-1053)
UniProt Q9UJQ4, sequence (whole entry, looked up): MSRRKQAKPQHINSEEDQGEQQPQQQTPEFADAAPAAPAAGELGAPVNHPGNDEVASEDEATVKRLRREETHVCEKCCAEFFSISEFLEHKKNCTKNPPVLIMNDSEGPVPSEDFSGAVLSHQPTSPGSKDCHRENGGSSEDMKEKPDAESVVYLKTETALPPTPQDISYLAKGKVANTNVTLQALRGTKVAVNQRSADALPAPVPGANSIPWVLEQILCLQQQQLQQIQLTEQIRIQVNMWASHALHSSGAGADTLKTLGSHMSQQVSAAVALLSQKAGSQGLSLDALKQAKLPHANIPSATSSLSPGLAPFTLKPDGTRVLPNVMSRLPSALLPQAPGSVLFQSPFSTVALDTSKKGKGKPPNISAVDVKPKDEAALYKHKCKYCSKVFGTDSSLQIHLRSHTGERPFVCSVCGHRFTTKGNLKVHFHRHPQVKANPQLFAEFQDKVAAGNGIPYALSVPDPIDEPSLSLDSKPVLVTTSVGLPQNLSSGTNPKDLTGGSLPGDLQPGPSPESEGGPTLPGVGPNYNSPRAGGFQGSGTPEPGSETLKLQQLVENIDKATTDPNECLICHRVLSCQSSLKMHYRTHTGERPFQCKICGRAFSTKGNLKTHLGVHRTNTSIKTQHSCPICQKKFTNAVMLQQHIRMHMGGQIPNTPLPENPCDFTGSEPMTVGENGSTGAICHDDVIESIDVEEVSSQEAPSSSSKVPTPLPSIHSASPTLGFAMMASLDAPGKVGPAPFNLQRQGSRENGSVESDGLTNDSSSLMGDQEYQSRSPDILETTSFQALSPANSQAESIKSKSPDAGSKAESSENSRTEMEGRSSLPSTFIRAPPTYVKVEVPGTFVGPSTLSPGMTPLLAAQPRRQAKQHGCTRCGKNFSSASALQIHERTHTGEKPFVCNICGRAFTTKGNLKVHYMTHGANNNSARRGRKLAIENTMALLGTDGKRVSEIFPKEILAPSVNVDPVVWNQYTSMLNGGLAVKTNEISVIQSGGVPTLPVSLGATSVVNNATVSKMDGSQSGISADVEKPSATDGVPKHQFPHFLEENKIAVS
Method: universal PBM
Molecule type: double-stranded DNA, one strand shown
Medium: in vitro
Tested at: 600 nM
Notes: 8-mer, flanks averaged, mean of replicates
Reading: higher = stronger binding
Quantity: E-score
TAATTTAA: 0.324
CGCATGTA: -0.0965
AATCGAAG: 0.195
GGTCTAGA: -0.135
AGCCCCGA: -0.29
TAACGCGA: 0.0565
CCTGTGGA: -0.283
GGTTAAAC: 0.0967
ATTGCCGC: -0.0771
CCAAGCCC: -0.281
ATAGGACC: -0.079
AGTTAGGA: 0.104
AAGGCATT: 0.0189
CGGAATAC: 0.101
ACTGTGCC: -0.0934
ACTATGCC: 0.124
AATGTACT: 0.19
ATCGTACC: -0.128
ACAACCAA: 0.0465
ACGGTCCG: -0.305

Study 3
Target: RNA binding protein fox-1 homolog 2, RRM domain, GST-SBP tag (RBFOX2, Homo sapiens, UniProt O43251-10, residues 100-194)
Method: RNA Bind-n-Seq
Molecule type: RNA
Medium: in vitro
Tested at: 365 nM
Notes: natural RNA segment, single round, ends assumed
Reference: no-protein control
Reading: higher = stronger binding
Quantity: RBNS enrichment (R)
Residues (chain): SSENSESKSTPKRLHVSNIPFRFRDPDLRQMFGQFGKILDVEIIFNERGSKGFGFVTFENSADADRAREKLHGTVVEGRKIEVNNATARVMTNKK
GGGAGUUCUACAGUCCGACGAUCCCGCUUUGCCCCAGUGAAGAGACAGCAUUCCUUCCUGUGCAGACCUGAGUGCAGAGUGUGUCCAUCUCGGCGUAUGGUGAAGGUGUCACUGGGUUCUGCAGCACUGGAGUUGGAAUUCUCGGGUGCCAA: 4.13
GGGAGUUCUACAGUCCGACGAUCAUUCGUCACCGUCUUUGGGCUGAAAAAGAAACCCUUCUGAUUACCUUCAUGACGGGAACCUAAGGACGAAGCCUACAGGGGCAAGGGCCGCUUCGUAUUCCUGGAAGAAGUGGAAUUCUCGGGUGCCAA: 0.586
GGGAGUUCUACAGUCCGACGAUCGAGACGGAACAUUCUCUAGAGACAACAGUCUGUGCUGCAGAUUGGUUGGAUCACAGAAUGUGUGUCUGGGGCAUUAUCUGAAACGUGGUGUCAUCUGAUGCAUUUGGACCUGGAAUUCUCGGGUGCCAA: 0.237
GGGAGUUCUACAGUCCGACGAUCCCACAAAGGUGCUGGGUGGCUCUCCGGACAGGAGCUGGCCUGACUCUCACUCCUCUGAGGCUUUCCUGGGGCCUCCUCCCAUCCUGCCAUGAGCAAUUGUUUGCUCUUGAUGGAAUUCUCGGGUGCCAA: 0.46
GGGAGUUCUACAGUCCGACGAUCGCAGAUAGUAAGGUACAACUGUGUUUUCUCAAUUGUCUCGAAGAACCAGAGUUCUUAAGUGGCCCAGUUGUGGAGCCAAGUCUAAGUCGUGUGGAGUCAGUGCUGACAUCUGGAAUUCUCGGGUGCCAA: 0.475
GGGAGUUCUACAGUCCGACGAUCCUUGUUUUGGCAGUACUGAAAUCAAAGGAGCUGGUUCUUCUUUUCUCCCAAUUAUUUUCAUAUGAAAGCACCUACAAUUAGCCUGUUAGUCCUAUUCAGAUACAUCAAAUUGGAAUUCUCGGGUGCCAA: 0.48
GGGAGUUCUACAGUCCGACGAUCUAUUUGAAAGGCAACAUAGUCAAUUAAGAAACCUGUAGUUGUUAAGGAAGAAAUUGUUGGCAAGAUAUCCAUACUGCCCAUAUCUCGUUGGUGCAAUAAUUAAAUAGCAAUGGAAUUCUCGGGUGCCAA: 0.353
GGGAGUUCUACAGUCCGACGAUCUCCACUCAUCUCGAAGGGUUGUGGUCCCCCCAGGAAAGUCUCGAGACAAUGGGGACAUUGUUGGUAGCUGUUCGGUAGAUGCUCUUUGCUAUUUAUAAGUGACUUUAAACUGGAAUUCUCGGGUGCCAA: 0.574

Study 4
Target: Prothrombin, mature alpha-thrombin (F2, Homo sapiens, UniProt P00734)
Method: aptamer microarray, sandwich
Molecule type: DNA with 2'F-ANA
Medium: in vitro
Tested at: 200 nM
Notes: whole 15-mer aptamer, many near background
With: Cy3 exosite-II aptamer, 400 nM
Reading: higher = stronger binding
Quantity: mean fluorescence intensity
Strand: GGTTGGTGTGGTTGG
2'F-ANA at 2 7 8 9 11 12 14 15: 170 a.u.
2'F-ANA at 3 4 6 9 13: 429 a.u.
2'F-ANA at 2 5 9 13 15: 51.1 a.u.
2'F-ANA at 1 3 5 6 8 9 15: 74 a.u.
2'F-ANA at 2 4 6 8 10 11 14: 57.1 a.u.
2'F-ANA at 3 4 7 8 9 11 12: 921 a.u.
2'F-ANA at 2 3 6 7 13 15: 549 a.u.
2'F-ANA at 1 2 4 5 7 9 11 13 14: 65 a.u.
2'F-ANA at 1 2 4 6 8 12: 320 a.u.
2'F-ANA at 2 3 4 5 9 10 11 12 13: 52.4 a.u.
2'F-ANA at 2 4 9 10 11 14: 65.8 a.u.
2'F-ANA at 1 2 3 4 5 6 7 8 15: 64.7 a.u.
2'F-ANA at 1 2 6 7 10 11 13 14: 53.1 a.u.
2'F-ANA at 1 2 3 4 5 6 7 9 11 12: 89.2 a.u.
2'F-ANA at 3 6 7 9 10 12: 625 a.u.
2'F-ANA at 1 3 6 7 10 11 12 13 14 15: 63.2 a.u.

For quick reference, copied from above (study 3):
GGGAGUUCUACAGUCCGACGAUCGCAGAUAGUAAGGUACAACUGUGUUUUCUCAAUUGUCUCGAAGAACCAGAGUUCUUAAGUGGCCCAGUUGUGGAGCCAAGUCUAAGUCGUGUGGAGUCAGUGCUGACAUCUGGAAUUCUCGGGUGCCAA: 0.475
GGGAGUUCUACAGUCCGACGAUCUAUUUGAAAGGCAACAUAGUCAAUUAAGAAACCUGUAGUUGUUAAGGAAGAAAUUGUUGGCAAGAUAUCCAUACUGCCCAUAUCUCGUUGGUGCAAUAAUUAAAUAGCAAUGGAAUUCUCGGGUGCCAA: 0.353
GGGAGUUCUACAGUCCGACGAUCCCACAAAGGUGCUGGGUGGCUCUCCGGACAGGAGCUGGCCUGACUCUCACUCCUCUGAGGCUUUCCUGGGGCCUCCUCCCAUCCUGCCAUGAGCAAUUGUUUGCUCUUGAUGGAAUUCUCGGGUGCCAA: 0.46
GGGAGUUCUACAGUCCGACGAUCGAGACGGAACAUUCUCUAGAGACAACAGUCUGUGCUGCAGAUUGGUUGGAUCACAGAAUGUGUGUCUGGGGCAUUAUCUGAAACGUGGUGUCAUCUGAUGCAUUUGGACCUGGAAUUCUCGGGUGCCAA: 0.237
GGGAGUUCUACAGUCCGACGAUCAUUCGUCACCGUCUUUGGGCUGAAAAAGAAACCCUUCUGAUUACCUUCAUGACGGGAACCUAAGGACGAAGCCUACAGGGGCAAGGGCCGCUUCGUAUUCCUGGAAGAAGUGGAAUUCUCGGGUGCCAA: 0.586
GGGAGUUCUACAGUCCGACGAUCCCGCUUUGCCCCAGUGAAGAGACAGCAUUCCUUCCUGUGCAGACCUGAGUGCAGAGUGUGUCCAUCUCGGCGUAUGGUGAAGGUGUCACUGGGUUCUGCAGCACUGGAGUUGGAAUUCUCGGGUGCCAA: 4.13
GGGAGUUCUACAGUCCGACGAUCCUUGUUUUGGCAGUACUGAAAUCAAAGGAGCUGGUUCUUCUUUUCUCCCAAUUAUUUUCAUAUGAAAGCACCUACAAUUAGCCUGUUAGUCCUAUUCAGAUACAUCAAAUUGGAAUUCUCGGGUGCCAA: 0.48
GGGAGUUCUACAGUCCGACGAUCUCCACUCAUCUCGAAGGGUUGUGGUCCCCCCAGGAAAGUCUCGAGACAAUGGGGACAUUGUUGGUAGCUGUUCGGUAGAUGCUCUUUGCUAUUUAUAAGUGACUUUAAACUGGAAUUCUCGGGUGCCAA: 0.574
